Measured values collected from several papers.
Every numbered part comes from another study and shows a few of its results, in no order.

Series 1
Target: Transcription factor Sp1 (SP1, Homo sapiens, UniProt P08047, residues 1-785, full length assumed)
UniProt P08047, sequence (whole entry, looked up): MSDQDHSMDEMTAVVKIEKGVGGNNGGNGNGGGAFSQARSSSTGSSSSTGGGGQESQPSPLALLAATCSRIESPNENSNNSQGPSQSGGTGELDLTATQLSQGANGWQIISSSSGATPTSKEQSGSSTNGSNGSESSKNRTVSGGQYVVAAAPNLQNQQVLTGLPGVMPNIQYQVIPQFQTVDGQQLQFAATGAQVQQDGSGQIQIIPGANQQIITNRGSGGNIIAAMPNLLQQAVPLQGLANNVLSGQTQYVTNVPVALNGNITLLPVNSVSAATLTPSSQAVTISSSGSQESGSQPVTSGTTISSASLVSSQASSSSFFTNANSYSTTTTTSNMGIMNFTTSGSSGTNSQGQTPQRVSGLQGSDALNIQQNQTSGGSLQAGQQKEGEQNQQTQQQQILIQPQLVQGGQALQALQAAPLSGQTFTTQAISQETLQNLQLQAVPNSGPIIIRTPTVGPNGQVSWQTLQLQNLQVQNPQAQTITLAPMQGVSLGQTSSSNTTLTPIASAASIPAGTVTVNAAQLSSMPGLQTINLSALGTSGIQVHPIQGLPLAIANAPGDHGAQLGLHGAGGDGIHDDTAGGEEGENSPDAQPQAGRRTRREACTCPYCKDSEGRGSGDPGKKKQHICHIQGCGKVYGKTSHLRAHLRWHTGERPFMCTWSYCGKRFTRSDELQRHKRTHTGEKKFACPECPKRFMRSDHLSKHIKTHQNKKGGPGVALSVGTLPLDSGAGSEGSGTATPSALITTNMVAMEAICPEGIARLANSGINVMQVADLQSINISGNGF
Technique: protein-binding microarray
Form: double-stranded DNA, one strand shown
Sample: in vitro
Concentration: not given
Setting: k-mer, scored over probes, only values ≥0.25
Direction: higher = stronger binding
Strand	E-score
ATATTAGG	0.262
CCGCCCTA	0.266
AGGGGCAT	0.265
CCTCCCCA	0.463

Series 2
Target: Centromere-binding protein 1, full length, His-tagged (CBF1, Saccharomyces cerevisiae, UniProt P17106, residues 1-351)
UniProt P17106, sequence (whole entry, looked up): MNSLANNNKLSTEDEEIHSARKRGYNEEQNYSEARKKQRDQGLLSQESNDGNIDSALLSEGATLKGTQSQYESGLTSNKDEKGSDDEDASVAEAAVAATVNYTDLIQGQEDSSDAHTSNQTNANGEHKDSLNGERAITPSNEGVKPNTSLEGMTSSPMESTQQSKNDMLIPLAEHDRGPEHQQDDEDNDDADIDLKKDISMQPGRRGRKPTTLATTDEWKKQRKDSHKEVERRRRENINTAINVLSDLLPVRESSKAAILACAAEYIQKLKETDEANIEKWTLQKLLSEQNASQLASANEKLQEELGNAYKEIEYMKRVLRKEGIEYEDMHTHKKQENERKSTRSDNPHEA
Technique: competition protein-binding microarray
Form: double-stranded DNA, one strand shown
Sample: in vitro
Concentration: 2 µM
Setting: whole 60-bp probe, lowest competitor level
Together with: Pho4 competitor, 0.05 µM
Direction: higher = stronger binding
All sequences stand within: … GTCTTGATTCGCTTGACGCTGCTG
Strand	fluorescence intensity
AGTCACTATGATGAGGATAATACCATGAAGAAAAAT	72.9 a.u.
ACCCTTTTCCCGAGTCACGTGCAAAGTGTAATAGTA	6670 a.u.
CTAACGAAGGTTTGTCACTATACTTACAAGCCAAGT	70.2 a.u.
CTGTTCTCTGTAATGCATGTGGCCTCTTCCTGAAGT	102 a.u.
GCCCATCATCGCGGCCACGCAACCCGGTAATCTCTA	50 a.u.
TCTTGCTGATTCTGCATCGTGGTGAACAGACGGTTT	76.6 a.u.
TATTTTGGAGTTAGGGTTGTGATGCTTGACGATAAC	77.1 a.u.
AACGGTTGATTCATTAATGTGATGACTGTTCACCCT	87.1 a.u.

Series 3
Target: Replicase polyprotein 1ab, polymerase (rep, Severe acute respiratory syndrome coronavirus 2, UniProt P0DTD1)
Observed: enzyme activity
Action: inhibitor
Concentration: 20 µM
Structure (SMILES)	inhibition [%]
C[C@@H](C(=O)O)c1ccc(-c2ccccc2)c(F)c1	1.54
Cc1cc2nc3c(=O)[nH]c(=O)nc-3n(C)c2cc1C=O	24
N[C@@]1(C(=O)O)CC[C@H]2[C@H](C(=O)O)[C@H]21	3.25
CCCCNC(=O)[C@@H]1Cc2ccccc2N1C(=O)[C@@H](N)CC	2.78
Cc1nnc(C[C@@H]2C=C(c3ccc(Cl)cc3)c3ccccc3-n3c(C)nnc32)o1	-4.46
COc1cc(N)c(Cl)cc1C(=O)CCC1CCN(CCNS(C)(=O)=O)CC1	-0.88
O=C(O)[C@H](O)[C@@H](O)[C@H](O[C@@H]1O[C@H](CO)[C@H](O)[C@H](O)[C@H]1O)[C@H](O)CO	-7.45
Cc1c(Cl)cccc1S(=O)(=O)Nc1nc(CC(=O)N2CCN(C)CC2)cs1	-0.05
O=c1sn(-c2cccc3ccccc23)c(=O)n1Cc1ccccc1	4.62
CC(CC(C(N)=O)(c1ccccc1)c1ccccc1)N(C)C (stereo not drawn)	0.45
CS[C@H]1SC[C@H]2C(=O)N(C)[C@@H](C(C)C)C(=O)OC[C@@H](NC(=O)c3cnc4ccccc4n3)C(=O)N[C@@H](C)C(=O)N(C)[C@@H]1C(=O)N(C)[C@@H](C(C)C)C(=O)OC[C@@H](NC(=O)c1cnc3ccccc3n1)C(=O)N[C@@H](C)C(=O)N2C	2.79
CC1CC(OC(=O)C(O)c2ccccc2)CC(C)(C)N1C (stereo not drawn)	-2.54
CS(=O)(=O)c1ccc(-c2cnc(N)c(C(=O)Nc3ccccc3)n2)cc1	8.34
C[C@]12N[C@H](Cc3ccccc31)c1ccccc12	4.07
CC(=O)OCC(=O)[C@H]1CC[C@H]2[C@@H]3CC[C@H]4C[C@H](O)CC[C@]4(C)[C@H]3C(=O)C[C@]12C	-0.93
CN(C)CCc1c[nH]c2ccc(Cn3cncn3)cc12	0.49
COc1c(OCCCN2CCOCC2)ccc2c1N=C(NC(=O)c1cnc(N)nc1)N1CCN=C21	-4.13
C=Cc1c(C)c2cc3nc(c(CC(=O)O)c4[nH]c(cc5nc(cc1[nH]2)C(C)=C5CC)c(C)c4C(=O)O)[C@@H](CCC(=O)O)[C@@H]3C	98.3
COC(=O)c1ccc(N2CCN(C)CC2)c(NC(=O)c2cccc(OC)c2)c1	-3
O=C(Nc1ccccc1)OCC(CN1CCCCC1)OC(=O)Nc1ccccc1 (stereo not drawn)	-4.55
CN[C@@H](C)C(=O)N[C@H](C(=O)N1CCC[C@H]1c1nc(C(=O)c2ccc(F)cc2)cs1)C1CCCCC1	0.99
Oc1ncnc2[nH]ncc12	0.33
COc1cc2c(cc1OC)[C@@H](Cc1cc(OC)c(OC)c(OC)c1)[N+](C)(CCCOC(=O)CC/C=C/CCC(=O)OCCC[N+]1(C)CCc3cc(OC)c(OC)cc3[C@H]1Cc1cc(OC)c(OC)c(OC)c1)CC2 (stereo partly drawn)	-0.68
CC(=O)N[C@@H](CCC(N)=O)C(=O)O	5.97
CCN(CC)CCOc1ccc(Nc2ncc3cc(-c4c(Cl)cccc4Cl)c(=O)n(C)c3n2)cc1	-1.6

Series 4
Target: Replicase polyprotein 1ab, main protease (rep, Severe acute respiratory syndrome coronavirus 2, UniProt P0DTD1)
Observed: enzyme activity
Action: inhibitor
Setting: with DTT
Compound	IC50
C[C@@H](CN1CC(=O)NC(=O)C1)N1CC(=O)NC(=O)C1	250 nM
Cn1sc(=O)n(Cc2ccccc2)c1=O	140 nM
Cc1ccc(-n2sc(=O)n(Cc3ccc(F)cc3)c2=O)cc1	150 nM
C=C1C(=O)O[C@H]2[C@H]1CC/C(C)=C/CC[C@@]1(C)O[C@@H]21	> 20000 nM
CCN(CC)C(=S)S	> 20000 nM

Series 5
Target: Interferon regulatory factor 7, full length, phosphomimetic (IRF7, Homo sapiens, UniProt Q92985, residues 1-503, S101K/S471D/S472D/S475D/S476D/S477D/S483D/S484D/S487D)
Technique: protein-binding microarray
Form: double-stranded DNA, one strand shown
Sample: in vitro
Concentration: 250 nM
Setting: 60-bp whole probe
Together with: salmon DNA 0.4 mg/ml
Relative to: random background probes
Direction: higher = stronger binding
All sequences stand within: GCCTAGCAC … GTCTTGATTCGCTTGACGCTGCTG
Construct (chain): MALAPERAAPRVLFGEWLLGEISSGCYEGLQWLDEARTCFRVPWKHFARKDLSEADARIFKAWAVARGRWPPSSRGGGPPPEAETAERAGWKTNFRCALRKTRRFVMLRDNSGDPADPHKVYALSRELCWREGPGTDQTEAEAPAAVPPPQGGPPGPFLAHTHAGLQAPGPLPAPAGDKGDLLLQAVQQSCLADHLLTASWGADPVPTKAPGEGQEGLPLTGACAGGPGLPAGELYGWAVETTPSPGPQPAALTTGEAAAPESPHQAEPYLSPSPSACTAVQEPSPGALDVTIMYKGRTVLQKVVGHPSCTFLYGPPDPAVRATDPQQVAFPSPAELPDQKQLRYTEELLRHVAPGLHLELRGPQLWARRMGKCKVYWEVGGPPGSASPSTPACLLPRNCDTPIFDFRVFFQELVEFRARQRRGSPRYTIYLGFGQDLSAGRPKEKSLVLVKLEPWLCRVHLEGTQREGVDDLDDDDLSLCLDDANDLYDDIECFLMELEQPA
Strand	log fluorescence [z-score]
TCAAACCCCATTCTCAGACTGTGCTAG	0.371
TTAGTTTTCGACTATCGGTTAGTGCTA	1.97
TTAGGTGTCGACTATCGGTTAGTGCTA	-0.164
GACGGACTCGGGTATCGGGACGTGCTA	0.59
TGAGGACTGCTTATCCTTTAGTGCTAG	-0.355
TTAGATATCGGGACTGGTTTAGTGCTA	0.418
GACGATTTCGGGTTTGGAGACGTGCTA	1.01
GACGGTCTCCTATTGCTGACGTGCTAG	0.343

Mixed results
SMILES	cell line	conditions	measurement	value
CN(C)CCOc1ccc(/C(=C(/CCCl)c2ccccc2)c2ccccc2)cc1	HEK-293T/ACE2	10 µM, 16 h	viability	100%
